Experimental data gathered from unrelated publications.
A part holds a random share of what one study measured. Substitutions count along the parent as printed.

Series 1
Target: ABI1, truncated, D143A, DHFR fusion (Arabidopsis thaliana, UniProt P49597)
Technique: DHFR PCA, dose-response
Sample: yeast
Setting: Hill fit, mean, not affinity
With: (+)-ABA, dose series
Direction: lower = more sensitive
Parent: PYL1, truncated, DHFR fusion (Arabidopsis thaliana, UniProt Q8VZS8); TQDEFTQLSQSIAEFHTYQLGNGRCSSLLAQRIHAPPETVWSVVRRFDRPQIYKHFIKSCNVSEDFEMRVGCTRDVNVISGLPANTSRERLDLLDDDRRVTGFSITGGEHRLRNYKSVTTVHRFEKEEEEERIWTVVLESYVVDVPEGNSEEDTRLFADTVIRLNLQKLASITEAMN
Variant	ABA EC50
D65C	4.49 µM
K168A	3.23 µM
Y53F	15.8 µM
V43H	43.1 µM
Q31E	28.2 µM
S11N	6.94 µM
A13H	3.78 µM
S63K	2.85 µM
E152T	4.21 µM
L20K	3.85 µM
I105S	19.9 µM
L29I	2.41 µM
V62Q	129 µM
S42Q	3.02 µM
F66I	10 µM
Q167R	0.421 µM
L94W	6.04 µM
R24M	2.29 µM
G102A	9.13 µM
W134K	13.7 µM
E67I	3.77 µM
E174S	9.83 µM
A30Q	2.92 µM
H55N	1.71 µM
R32D	15.2 µM

Series 2
Target: Histone acetyltransferase KAT6A, winged helix 1, GST fusion (KAT6A, Homo sapiens, UniProt Q92794, residues 1-85)
Technique: protein binding microarray
Form: double-stranded DNA, one strand shown
Sample: in vitro
Concentration: not given
Setting: 8-mer, flanks averaged, mean of 2 arrays, mostly near background
Reference: not given
Direction: higher = stronger binding
Residues (chain): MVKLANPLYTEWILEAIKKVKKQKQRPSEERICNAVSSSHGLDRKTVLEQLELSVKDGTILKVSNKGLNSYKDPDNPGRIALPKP
Sequence	E-score
CCTAGGTA	-0.0768
AACCGCTT	0.16
CCGTTAGG	0.19
CTGTACAG	-0.0128
TCCCTCGA	-0.00688
CCGGGGAG	0.215
GATTATAC	-0.0253
AAGTCAAA	-0.242
TCTGACAA	-0.197
GGCAATGA	-0.0612
CGACCACA	-0.117
CTAAAATA	-0.0882
CCCACGGG	0.183
TATCTTAA	-0.175
CAGCGGCA	0.285
AGGAAAAA	-0.113
GTACGGTA	0.242
AACTATTC	0.068
CAGATTAA	-0.133
AATAACGA	-0.178

Series 3
Target: Interferon regulatory factor 5, full length, phosphomimetic (IRF5, Homo sapiens, UniProt Q13568-2, residues 1-514, S451D/S453D/S456D/S462D)
Technique: protein-binding microarray
Form: double-stranded DNA, one strand shown
Sample: in vitro
Concentration: 940 nM top
Setting: 60-bp whole probe
With: salmon DNA 0.4 mg/ml
Reference: random background probes
Direction: higher = stronger binding
Constant ends, left off below: GCCTAGCAC … GTCTTGATTCGCTTGACGCTGCTG
Sequence	fitted relative affinity [z-score]
GACGGTCTAGGTTTCGGGACGTGCTAG	3.27
TCATAAACTAGAAACTGAACTGTGCTA	-0.095
TCATTTTTCTCACCACATACTGTGCTA	1.74
TTAGAACTCAGACTGGATTAGTGCTAG	-0.493
TTAGGTTACCTACTGCTTTAGTGCTAG	-0.294
GATGATTTCGGGACTGGAGACGTGCTA	0.14
TCATCTCTCTTAAATAGGACTGTGCTA	1.04
TTAAATTTCAGACTGGATTAGTGCTAG	-0.11
AAAAAAAATGGAAATCTACCCGTGCTA	-0.064
TTAGAACTGGGGACTGGATTCGTGCTA	-0.208
TTAGGCATCCTTTTCCTTTAGTGCTAG	-0.278
TTAGGACTGGGGACTGAGTTAGTGCTA	-0.218
TTAGAACTGGGGTTTGGATTAGTGCTA	-0.196
GACGATATCGGGAGTGGAGACGTGCTA	0.451
CTTGCTCTTGTTTTCACAGGGTGCTAG	0.951
CACGGTCTCGGTTTCGGGACGTGCTAG	5.81
GACGATATCGGGATTGGAGACGTGCTA	-0.345
GACGGTTTCCTTCTCCTGCCGTGCTAG	1.33
TCAATTTTCATTTTGTGACTGTGCTAG	0.82

Series 4
Target: RING finger protein unkempt homolog, zinc fingers 1-6, GST-SBP tag (UNK, Homo sapiens, UniProt Q9C0B0, residues 30-357)
Technique: RNA Bind-n-Seq
Form: RNA
Sample: in vitro
Concentration: not given
Setting: RNA with constant flanks, human and mouse sites, ends assumed
Reference: input RNA pool
Direction: higher = stronger binding
Constant ends, left off below: GGGAGUUCUACAGUCCGACGAUC … CAACAGAGGAUUGAGCAUCA
Target sequence (chain): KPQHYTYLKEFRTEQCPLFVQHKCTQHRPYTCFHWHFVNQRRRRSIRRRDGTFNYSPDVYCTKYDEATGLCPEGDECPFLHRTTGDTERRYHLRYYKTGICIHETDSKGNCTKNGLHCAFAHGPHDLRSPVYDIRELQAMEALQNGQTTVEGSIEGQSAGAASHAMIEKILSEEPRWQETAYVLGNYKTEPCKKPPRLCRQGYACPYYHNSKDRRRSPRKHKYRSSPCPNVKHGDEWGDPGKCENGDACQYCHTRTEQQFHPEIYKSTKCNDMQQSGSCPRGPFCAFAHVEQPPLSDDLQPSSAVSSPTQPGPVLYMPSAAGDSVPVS
Sequence	bound/input enrichment [ratio]
GACACAAUCAUCAACCAGAAACGUUUCAACGAUGGGACCGACGAGAAGAAGAAGCUGUACUGCAUCUACGUCGCGAUUGGUCAGAAGCGGUCCACUGUGGCUCAGCUGGUGAAGAGACUG	0.0954
AAGCUAUUAGCUCCAGAUUGUGAAAUUGUGCAAGAGCUGGGAAAACUCUAUCCAUUGGAGAUUGUGUUUGGAAUGAAUGGAAGAAUAUGGGUCAAAGCUAAGACCAUUCAGCAGACGUUA	0.178
AGAACAGGUUUCUCUCUGUCCUUGACUCUUGGGUCUGUGGGCCAUGGCAUGAGUGUUUUCUAGUAGUAGAUUGGAGGGAAAGCUUUGUGACACUUAGUACUGUGUUUUUAAGAAGAAAUA	1.72
GUGACCCGGUCUCUGGACACUGUCAAUGGAAGGAUGGUUCUGCCCGUUGAUGAAAGCUUGACUGAGGCCUUGGGAAUCCGAUCCAAAUAUGCUUCUUUGCGAAAAGACAGCUUACUGAAA	0.0885
GAGAAUAAUAUUCUUGCAAAAAAGAAACCCUAUAAGUGUGAUAAAUGUAGAAAAGCCUUUAUUCAUAGAUCAUCGCUUACUAAACAUGAGAAAACACAUAAAGGAGAGGGAGCUUUCCCU	0.215
GAAAACUAUAGGAUGAUCAAAAAAUCAGGUGAAUCAUAUCCUGUGCAUUUCAAAAAAGAAGAAGCUAGUUCAUUAAAUUCUUUACACCUGUUUUCAUCAUCAAGUAAUUCUCACAACAAU	0.979
GCUGGUCAUAGAAUAGGUGAAUACCUUGAGAAGAUAAUUCCUUUGGUGGUAAAAUUUUGCAAUGUAGAUGAUGAUGAAUUAAGAGAGUACUGUAUUCAAGCCUUUGAAUCAUUUGUAAGA	3
AGAAUGGAAGAUUUCACAUUUAAUGACUUGCAUAUUAAACUUGGCUUUCCUUACUUAUACUGUCACCAGGGAGACUGUGAGCAUGUUGUUGUCAUCACAGACAUAAGGCUUGUGCACCAU	0.291

A few entries again (series 4):
Sequence	bound/input enrichment [ratio]
GAGAAUAAUAUUCUUGCAAAAAAGAAACCCUAUAAGUGUGAUAAAUGUAGAAAAGCCUUUAUUCAUAGAUCAUCGCUUACUAAACAUGAGAAAACACAUAAAGGAGAGGGAGCUUUCCCU	0.215
GAAAACUAUAGGAUGAUCAAAAAAUCAGGUGAAUCAUAUCCUGUGCAUUUCAAAAAAGAAGAAGCUAGUUCAUUAAAUUCUUUACACCUGUUUUCAUCAUCAAGUAAUUCUCACAACAAU	0.979
AAGCUAUUAGCUCCAGAUUGUGAAAUUGUGCAAGAGCUGGGAAAACUCUAUCCAUUGGAGAUUGUGUUUGGAAUGAAUGGAAGAAUAUGGGUCAAAGCUAAGACCAUUCAGCAGACGUUA	0.178
GCUGGUCAUAGAAUAGGUGAAUACCUUGAGAAGAUAAUUCCUUUGGUGGUAAAAUUUUGCAAUGUAGAUGAUGAUGAAUUAAGAGAGUACUGUAUUCAAGCCUUUGAAUCAUUUGUAAGA	3
AGAACAGGUUUCUCUCUGUCCUUGACUCUUGGGUCUGUGGGCCAUGGCAUGAGUGUUUUCUAGUAGUAGAUUGGAGGGAAAGCUUUGUGACACUUAGUACUGUGUUUUUAAGAAGAAAUA	1.72
GUGACCCGGUCUCUGGACACUGUCAAUGGAAGGAUGGUUCUGCCCGUUGAUGAAAGCUUGACUGAGGCCUUGGGAAUCCGAUCCAAAUAUGCUUCUUUGCGAAAAGACAGCUUACUGAAA	0.0885
AGAAUGGAAGAUUUCACAUUUAAUGACUUGCAUAUUAAACUUGGCUUUCCUUACUUAUACUGUCACCAGGGAGACUGUGAGCAUGUUGUUGUCAUCACAGACAUAAGGCUUGUGCACCAU	0.291
